Literature values, collected from citations in different studies.
Compare with care: the assays were run in different laboratories. ± marks the error that the study gave.

`C=C[C@@]1(C)COC(=O)[C@]12O[C@]1(c3ccccc3)[C@H](C2=O)[C@H]2[C@H]([C@H](C)CCC=C(C)C)CC=C(C)[C@H]21` has an IC50 of 1.7 µM (HIV; viral replication).
`CC(=O)c1ccc(NC(=O)CSc2nc(-c3ccccc3Cl)ns2)cc1` gave an IC50 of over 32 µM (Trypanosoma brucei rhodesiense; STIB 900).
`NCCCC(N)(C(=O)O)C(F)F` (centres unmarked) has an IC50 of 46 ± 17.1 µM (Trypanosoma brucei rhodesiense; cell growth; IL1501).
`C[C@H]1c2cccc(O)c2C(=O)C2=C(O)[C@]3(O)C(=O)C(C(N)=O)=C(O)[C@@H](N(C)C)[C@@H]3[C@@H](O)[C@@H]21` gave an IC50 of 0.016 µM (Wolbachia; Wolbachia load, high-content imaging; C6/36, wAlbB).
The IC50 of `C=CCCCCC(=O)N(C)[C@H](C(=O)N(C)[C@H](C(=O)N(C)[C@H](C(=O)N(C)[C@@H](C)C(=O)N(C)[C@@H](Cc1ccccc1)C(=O)OC)C(C)C)C(C)C)C(C)C` is reported as over 14 µM (Leishmania donovani).
`Cc1cc(Nc2ccc(C)c(Cl)c2)n2nc(C(F)(F)F)nc2n1` has an IC50 of over 32 µM (Trypanosoma brucei brucei; Squib 427).
For `CCCCCCCCCCCCCCCCOP(=O)([O-])OCC[N+](C)(C)C`, the IC50 was 47 µM (Trypanosoma brucei rhodesiense; parasite growth; in vitro).
For `Clc1cccc(Nc2ccc3c(N4CCCCC4)ncnc3n2)c1`, the IC50 was 0.577 µM (Plasmodium falciparum; 3D7; 72 h, whole cell).
`C=CCCCC[C@@H](C)C(=O)N(C)[C@H](C(=O)N(C)[C@H](C(=O)N[C@H](C(=O)N(C)[C@@H](C)C(=O)N(C)[C@@H](Cc1ccccc1)C(N)=O)C(C)C)C(C)C)C(C)C` gave an IC50 of 1.9 µM (Leishmania donovani).
For `Cn1c(=O)n(C)c2cc(CNCCNc3ccnc4cc(Cl)ccc34)ccc21`, the IC50 was 11.5 µM (Trypanosoma brucei brucei; Squib 427).
`N=C(N)c1cccc(/C=N/N=C(\N)N/N=C/c2cccc(C(=N)N)c2)c1` gave an IC50 of 20 µM (Trypanosoma cruzi; parasite growth).
The IC50 of `C/C=C1\NC(=O)[C@H]2CSSCC/C=C/[C@H](CC(=O)N[C@H](C(C)C)C(=O)N2)OC(=O)[C@H](C(C)C)NC1=O` is reported as 0.035 µM (Trypanosoma brucei; growth; bloodstream form).
With `N=C(N)c1ccc(N=NNc2ccc(C(=N)N)cc2)cc1` the IC50 was 0.109 ± 0.026 µM (Trypanosoma congolense; IL3000).
For `CCCCCCCCCCCCCCCC[N+](C)(C)C`, the IC50 was 14 µM (Theileria equi; growth).
The IC50 of `N=C(N)c1ccc(OCCCCCOc2ccc(C(=N)N)cc2)cc1` is reported as 0.33 ± 0.05 µM (Trypanosoma congolense; IL3000).
`c1ccc(-c2ccc(-c3nc4ccccc4[nH]3)cc2)cc1` gave an IC50 of over 32 µM (Trypanosoma brucei brucei; Squib 427).
`C=CCCCCCC(=O)N(C)[C@H](C(=O)N(C)[C@H](C(=O)N(C)[C@H](C(=O)N(C)[C@@H](C)C(=O)N(C)[C@@H](Cc1ccccc1)C(=O)O)C(C)C)C(C)C)C(C)C` gave an IC50 of 4.1 µM (Leishmania donovani).
`CCOc1cccc(C(=O)Nc2ccc(-c3nc4ccccc4[nH]3)cc2)c1` gave an IC50 of over 32 µM (Trypanosoma brucei brucei; Squib 427).
With `CC1CS(=O)(=O)CCN1/N=C/c1ccc([N+](=O)[O-])o1` (centres unmarked) the IC50 was 1.06 ± 0.22 µM (Trypanosoma congolense; IL3000).
For `Cc1nc2ccccc2c(O)c1CC=C(Cl)Cl`, the IC50 was over 32 µM (Trypanosoma brucei rhodesiense; STIB 900).
For `Cc1ccc(C(=O)Nc2ccc(S(=O)(=O)O)c3cc(S(=O)(=O)O)cc(S(=O)(=O)O)c23)cc1NC(=O)c1cccc(NC(=O)Nc2cccc(C(=O)Nc3cc(C(=O)Nc4ccc(S(=O)(=O)O)c5cc(S(=O)(=O)O)cc(S(=O)(=O)O)c45)ccc3C)c2)c1`, the IC50 was 0.038 ± 0.014 µM (Trypanosoma equiperdum; cell growth; IVM-t1).
The IC50 of `CCOC(=O)c1c(C)n(-c2ccccc2)c2ccc(OC(=O)c3cc(OC)c(OC)c(OC)c3)cc12` is reported as 16.2 µM (Trypanosoma brucei brucei; Squib 427).
`Cc1cc2nc(N)[nH]c2cc1C` has an IC50 of 37.5 µM (Pseudomonas aeruginosa; LasR quorum sensing; PAO1 reporter).
`COCCN(C)c1ccc(C(=O)Nc2ccccc2)cc1NS(=O)(=O)Cc1ccccc1` has an IC50 of 0.571 µM (Plasmodium falciparum; 3D7; 72 h, whole cell).
For `Cn1c(C(=O)NCCCc2c[nH]c(N)n2)cc(Br)c1Br`, the IC50 was 111 µM (Pseudomonas aeruginosa; biofilm formation; PA14; 50% inhibition).
`c1ccc(CNc2nc(Nc3ccccc3)nc3ccccc23)cc1` has an IC50 of 3.1 µM (Trypanosoma brucei rhodesiense; STIB 900).

Some of these lines once more:
The IC50 of `CCOC(=O)c1c(C)n(-c2ccccc2)c2ccc(OC(=O)c3cc(OC)c(OC)c(OC)c3)cc12` is reported as 16.2 µM (Trypanosoma brucei brucei; Squib 427).
`Cc1cc2nc(N)[nH]c2cc1C` has an IC50 of 37.5 µM (Pseudomonas aeruginosa; LasR quorum sensing; PAO1 reporter).
`COCCN(C)c1ccc(C(=O)Nc2ccccc2)cc1NS(=O)(=O)Cc1ccccc1` has an IC50 of 0.571 µM (Plasmodium falciparum; 3D7; 72 h, whole cell).
For `Cn1c(C(=O)NCCCc2c[nH]c(N)n2)cc(Br)c1Br`, the IC50 was 111 µM (Pseudomonas aeruginosa; biofilm formation; PA14; 50% inhibition).
